Results of several laboratories.
Organism: Staphylococcus aureus

SMILES	test	system	conditions	MIC
CC(C)C[C@H](NC(=O)[C@H](CCCCN)NC(=O)C1CCCC=CCCC(NC(=O)[C@H](CCCCN)NC(=O)[C@@H](N)CC(C)C)C(=O)N[C@@H](CCCCN)C(=O)N[C@@H](CC(C)C)C(=O)N[C@@H](CCCCN)C(=O)N2CCC[C@@H]2C(=O)NCC(=O)N[C@@H](CCCCN)C(=O)N[C@@H](CC(C)C)C(=O)N[C@@H](CCCCN)C(=O)N1)C(N)=O (stereo partly drawn)	broth microdilution	ATCC 29737, Mueller-Hinton broth	18 h, 37 °C	32 µM
CC[C@H](C)[C@H](NC(=O)[C@H](CCCCN)NC(=O)[C@H](CCC(N)=O)NC(=O)[C@H](C)NC(=O)[C@H](Cc1ccc(O)cc1)NC(=O)[C@H](CCC(=O)O)NC(=O)[C@H](CCCCN)NC(=O)[C@H](C)NC(=O)[C@H](CC(C)C)NC(=O)[C@H](CCCNC(=N)N)NC(=O)[C@H](CC(C)C)NC(=O)CNC(=O)[C@H](CCCCN)NC(=O)[C@H](C)NC(=O)[C@H](CCCNC(=N)N)NC(=O)[C@H](CC(C)C)NC(=O)[C@H](CCCCN)NC(=O)[C@H](CCC(N)=O)NC(=O)[C@H](C)NC(=O)[C@H](CC(C)C)NC(=O)[C@H](CCCCN)NC(=O)[C@H](CO)NC(=O)[C@H](CCCCN)NC(=O)[C@@H](N)Cc1c[nH]c2ccccc12)C(=O)N[C@@H](CC(C)C)C(=O)N[C@@H](CC(N)=O)C(=O)O	broth microdilution	ATCC 29213, Mueller-Hinton broth	16 to 20 h, 37 °C	141 µg/mL
CC[C@H](C)[C@H](NC(=O)[C@@H](CCC(=O)O)NC(=O)[C@H](CC(C)C)NC(=O)c1cccc(C(=O)O)n1)C(=O)N[C@H]1CCCCNC(=O)[C@H](CC(N)=O)NC(=O)[C@@H](CC(=O)O)NC(=O)[C@H](Cc2c[nH]cn2)NC(=O)[C@@H](Cc2ccccc2)NC(=O)[C@H]([C@@H](C)CC)NC(=O)[C@@H](CCCN)NC1=O	–	USA300 methicillin-resistant	18 h, 37 °C, 0.3 mM ZnSO4 LB	> 64 µg/mL
CC[C@H](C)[C@H](NC(=O)[C@@H](CCCNC(=N)N)NC(=O)[C@H](CCCNC(=N)N)NC(=O)[C@@H]1CCCN1C(=O)[C@@H]1CCCN1C(=O)[C@H](CCCNC(=N)N)NC(=O)[C@@H]1CCCN1C(=O)[C@H](CCCNC(=N)N)NC(=O)[C@@H]1CCCN1C(=O)[C@H](CC(C)C)NC(=O)[C@H](Cc1ccccc1)NC(=O)[C@@H]1CCCN1C(=O)[C@@H]1CCCN1C(=O)[C@H](CCCCN)NC(=O)[C@H](CC(=O)O)NC(=O)[C@@H](N)C(C)C)C(=O)N[C@@H](Cc1ccc(O)cc1)C(=O)N[C@@H](CC(N)=O)C(=O)N[C@H](CCCNC(=N)N)C(N)=O	broth microdilution	DSM 6247	18 h, 37 °C, 25% MHB2	> 128 µg/mL
CC(C)CCCCCCCCC/C=C/C(=O)N[C@@H](CC(N)=O)C(=O)N[C@H]1CNC(=O)[C@@H]2CCCN2C(=O)[C@H](C(C)C)NC(=O)[C@@H](CN)NC(=O)CNC(=O)[C@H](CC(=O)O)NC(=O)CNC(=O)[C@H](CC(=O)O)NC(=O)[C@H](CC(=O)O)NC(=O)[C@H]2CCCCN2C1=O	broth microdilution	BR-VRSA strain 880, Mueller-Hinton broth, Mg2+ 10 mg/L	16 h, with: Ca2+ 5 mM	1 µg/mL
CC(C)C[C@@H](NC(=O)[C@@H](CCCNC(=N)N)NC(=O)[C@H](N)CCCNC(=N)N)C(=O)N[C@H](CC(C)C)C(=O)N[C@H](CCCNC(=N)N)C(=O)N[C@H](CCCCN)C(=O)N[C@H](CC(C)C)C(=O)N[C@H](CCCCN)C(=O)NCC(=O)N[C@H](CCCCN)C(=O)N[C@H](CCCCN)C(=O)N[C@H](CC(C)C)C(=O)N[C@H](Cc1ccc(O)cc1)C(=O)N[C@H](CC(C)C)C(=O)N[C@H](Cc1ccc(O)cc1)C(=O)N[C@H](Cc1ccccc1)C(=O)N[C@H](CCCCN)C(=O)N[C@H](CC(C)C)C(=O)N[C@H](CCC(N)=O)C(=O)N[C@H](CC(C)C)C(=O)N[C@H](CC(C)C)C(=O)N[C@H](CCCCN)C(=O)N[C@H](CCCCN)C(N)=O	–	CCARM 3095, methicillin-resistant, Mueller-Hinton broth	24 h	4 µM
CC(=O)N[C@@H](CC(C)C)C(=O)N[C@H]1CSSC[C@@H](C(=O)N2CCC[C@H]2C(N)=O)NC(=O)[C@H]([C@@H](C)O)NC(=O)[C@H](C(C)C)NC(=O)[C@H]([C@@H](C)O)NC(=O)CNC(=O)[C@H](CC(C)C)NC(=O)[C@H](Cc2ccccc2)NC(=O)[C@H](Cc2ccc(O)cc2)NC(=O)[C@H](CC(C)C)NC(=O)[C@H](CCCCN)NC(=O)[C@H](Cc2ccccc2)NC(=O)[C@H](CCCNC(=N)N)NC(=O)[C@H](CCC(N)=O)NC(=O)[C@H](CC(C)C)NC(=O)[C@H](CCCCN)NC(=O)[C@@H]2CCCN2C(=O)[C@H](CCCCN)NC(=O)[C@H](C(C)C)NC(=O)[C@H](CCCCN)NC(=O)[C@H](Cc2ccc(O)cc2)NC(=O)[C@H]([C@@H](C)O)NC1=O	broth dilution	laboratory strain	24 h	5 to 10 µM
Cc1ccc2[nH]c3c(c2c1)CCCC3NCCc1ccc(O)cc1 (stereo not drawn)	broth microdilution	USA300 JE2 MRSA	–	16 µg/mL
CC[C@H](C)[C@H](NC(=O)[C@@H](CCCNC(=N)N)NC(=O)[C@H](CCCNC(=N)N)NC(=O)[C@H](Cc1ccccc1)NC(=O)[C@H](Cc1c[nH]c2ccccc12)NC(=O)[C@H](CCCNC(=N)N)NC(=O)[C@@H]1CCCN1C(=O)[C@H](CCCNC(=N)N)NC(=O)[C@@H]1CCCN1C(=O)[C@H](CC(C)C)NC(=O)[C@H](Cc1ccc(O)cc1)NC(=O)[C@@H]1CCCN1C(=O)[C@@H]1CCCN1C(=O)[C@H](CCCCN)NC(=O)[C@H](CC(=O)O)NC(=O)[C@@H](N)C(C)C)C(=O)N[C@@H](Cc1ccc(O)cc1)C(=O)N[C@@H](CC(N)=O)C(=O)N[C@H](CCCNC(=N)N)C(N)=O	broth microdilution	DSM 6247	18 h, 37 °C, 25% MHB2	64 µg/mL
CC[C@H](C)[C@@H]1NC(=O)[C@H](CO)NC(=O)[C@H](CCCCN)NC(=O)[C@@H]2CSSC[C@@H](C(=O)N[C@@H](Cc3ccc(O)cc3)C(N)=O)NC(=O)[C@H](CCCCN)NC(=O)[C@@H]3CSSC[C@H](NC(=O)[C@H](CCCNC(=N)N)NC(=O)[C@H](CC(C)C)NC(=O)[C@H](CC(=O)O)NC(=O)[C@H](CC(=O)O)NC(=O)[C@H](CCC(=O)O)NC(=O)[C@H](CC(N)=O)NC(=O)[C@H](Cc4c[nH]c5ccccc45)NC(=O)C(C)(CC)NC(=O)CNC(=O)[C@H](CC(N)=O)NC(=O)[C@@H](NC(=O)CNC(=O)[C@H](Cc4ccccc4)NC(=O)CN)CSSC[C@H](NC(=O)[C@H](Cc4ccc(O)cc4)NC(=O)CNC(=O)CNC(=O)[C@H](CCCCN)NC(=O)[C@H](Cc4ccc(O)cc4)NC(=O)[C@H]4CCCN4C(=O)[C@@H]4CCCN4C1=O)C(=O)N[C@@H](C)C(=O)N[C@@H](CCCCN)C(=O)N1CCC[C@@H]1C(=O)NCC(=O)N[C@@H](Cc1ccccc1)C(=O)N[C@@H](C(C)C)C(=O)N3)C(=O)N[C@@H](Cc1c[nH]cn1)C(=O)N[C@@H](CC(N)=O)C(=O)N[C@@H](Cc1c[nH]cn1)C(=O)N2 (stereo partly drawn)	–	469, methicillin-resistant mecA, cation-adjusted Mueller Hinton broth	18 h, 37 °C	1 µM
CN[C@H](CC(C)C)C(=O)N[C@H]1C(=O)N[C@@H](CC(N)=O)C(=O)N[C@H]2C(=O)N[C@H]3C(=O)N[C@H](C(=O)N[C@H](C(=O)N[C@@H](CCCNC(=N)N)C(N)=O)c4cc(O)cc(O)c4-c4cc3ccc4O)[C@H](O)c3ccc(c(Cl)c3)Oc3cc2cc(c3O[C@@H]2O[C@H](CO)[C@@H](O)[C@H](O)[C@H]2O[C@H]2C[C@](C)(NCc3ccc(OCc4cn(CC(=O)N[C@H](C(=O)N[C@@H](CCN)C(=O)N[C@H]5CCNC(=O)[C@H]([C@@H](C)O)NC(=O)[C@H](CCN)NC(=O)[C@H](CCN)NC(=O)[C@H](CC(C)C)NC(=O)[C@@H](CC(C)C)NC(=O)[C@H](CCN)NC5=O)[C@@H](C)O)nn4)c(OC)c3)[C@H](O)[C@H](C)O2)Oc2ccc(cc2Cl)[C@H]1O	–	MSSA ATCC 29213	–	0.358 µM
CC1CCN(C(=O)c2cccc(NC(=O)Nc3ccc(F)cc3)c2)CC1	checkerboard, refers to: ceftobiprole	CRB, PBP4 overexpressor	25 µM	> 64 µg/mL
CN[C@H](CC(C)C)C(=O)N[C@H]1C(=O)N[C@@H](CC(N)=O)C(=O)N[C@H]2C(=O)N[C@H]3C(=O)N[C@H](C(=O)N[C@H](C(=O)NCc4cn(CCCCC(=O)N[C@H](C(=O)N[C@@H](CCN)C(=O)N[C@H]5CCNC(=O)[C@H]([C@@H](C)O)NC(=O)[C@H](CCN)NC(=O)[C@H](CCN)NC(=O)[C@H](CC(C)C)NC(=O)[C@@H](CC(C)C)NC(=O)[C@H](CCN)NC5=O)[C@@H](C)O)nn4)c4cc(O)cc(O)c4-c4cc3ccc4O)[C@H](O)c3ccc(c(Cl)c3)Oc3cc2cc(c3O[C@@H]2O[C@H](CO)[C@@H](O)[C@H](O)[C@H]2O[C@H]2C[C@](C)(N)[C@H](O)[C@H](C)O2)Oc2ccc(cc2Cl)[C@H]1O	–	VRSA 2 vanA	–	25 µM
N=C(N)NCCC[C@@H]1NC(=O)[C@@H](CCCNC(=N)N)NC(=O)[C@H](CCCNC(=N)N)NC(=O)[C@@H](C(c2ccccc2)c2ccccc2)NC(=O)[C@@H](C(c2ccccc2)c2ccccc2)NC(=O)[C@@H](C(c2ccccc2)c2ccccc2)NC(=O)[C@@H](CCCNC(=N)N)NC1=O	–	1193193, MRSA	–	4 µg/mL
CN[C@H](CC(C)C)C(=O)N[C@H]1C(=O)N[C@@H](CC(N)=O)C(=O)N[C@H]2C(=O)N[C@H]3C(=O)N[C@H](C(=O)N[C@H](C(=O)NCc4cn(CC(=O)N[C@H](C(=O)N[C@@H](CCN)C(=O)N[C@H]5CCNC(=O)[C@H]([C@@H](C)O)NC(=O)[C@H](CCN)NC(=O)[C@H](CCN)NC(=O)[C@H](CC(C)C)NC(=O)[C@@H](CC(C)C)NC(=O)[C@H](CCN)NC5=O)[C@@H](C)O)nn4)c4cc(O)cc(O)c4-c4cc3ccc4O)[C@H](O)c3ccc(c(Cl)c3)Oc3cc2cc(c3O[C@@H]2O[C@H](CO)[C@@H](O)[C@H](O)[C@H]2O[C@H]2C[C@](C)(N)[C@H](O)[C@H](C)O2)Oc2ccc(cc2Cl)[C@H]1O	–	MRSA USA300	–	0.2 µM
COc1ccc2ccc(O)c(/C=N/[C@H]3CCCC[C@H]3/N=C/c3cc(C(C)(C)C)ccc3O)c2c1	bacterial growth, broth microdilution	vancomycin-intermediate	–	> 40 µM
CN[C@H](CC(C)C)C(=O)N[C@H]1C(=O)N[C@@H](CC(N)=O)C(=O)N[C@H]2C(=O)N[C@H]3C(=O)N[C@H](C(=O)N[C@H](C(=O)O)c4cc(O)cc(O)c4-c4cc3ccc4O)[C@H](O)c3ccc(c(Cl)c3)Oc3cc2cc(c3O[C@@H]2O[C@H](CO)[C@@H](O)[C@H](O)[C@H]2O[C@H]2C[C@](C)(NCc3ccc(OCc4cn(CCCCC(=O)N[C@H](C(=O)N[C@@H](CCN)C(=O)N[C@H]5CCNC(=O)[C@H]([C@@H](C)O)NC(=O)[C@H](CCN)NC(=O)[C@H](CCN)NC(=O)[C@H](CC(C)C)NC(=O)[C@@H](CC(C)C)NC(=O)[C@H](CCN)NC5=O)[C@@H](C)O)nn4)c(OC)c3)[C@H](O)[C@H](C)O2)Oc2ccc(cc2Cl)[C@H]1O	–	LIM-2 VISA	–	1 µM
CC[C@H](C)[C@H](N)C(=O)N1CCC[C@H]1C(=O)N[C@@H](Cc1ccccc1)C(=O)N[C@@H](Cc1c[nH]c2ccccc12)C(=O)N[C@@H](CCCNC(=N)N)C(=O)N[C@@H](Cc1c[nH]c2ccccc12)C(=O)N[C@@H](CC(C)C)C(=O)N[C@@H](CC(C)C)C(=O)N[C@@H](CCC(N)=O)C(=O)N[C@@H](CCCNC(=N)N)C(=O)N[C@@H](CC(C)C)C(=O)N1CCC[C@H]1C(=O)NCC(=O)O	broth microdilution	ATCC 29213	–	19 µM
